# Measurements of several laboratories.
# Each numbered part is a random draw from the data of one study; scales do not carry over between parts.

# Block 1 — method: RNA Bind-n-Seq; form: RNA; sample: in vitro; concentration: 365 nM; reference: no-protein control; reading: higher = stronger binding
# Target: RNA binding protein fox-1 homolog 2, RRM domain, GST-SBP tag (RBFOX2, Homo sapiens, UniProt O43251-10, residues 100-194)
# Notes: natural RNA segment, single round, ends assumed
# Constant ends, left off below: GGGAGUUCUACAGUCCGACGAUC … UGGAAUUCUCGGGUGCCAA
# Target sequence (chain): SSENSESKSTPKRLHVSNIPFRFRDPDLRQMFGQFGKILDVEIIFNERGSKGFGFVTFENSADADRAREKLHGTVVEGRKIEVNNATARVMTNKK
Strand,RBNS enrichment (R)
AUGAGUAGGUACCAGAUACCAACUCAGUAAUUAAUUUUGUAGCAUUGUCCCCAAGCUCUGGAUUUUUUUCUCUCCAGGACCCAAGUUUUAGGCAGUGAGUAAUGCUUAUA,0.301
UACACCAGUGACUGUCGGGCAGGGCAAGCGCCCUGGUCACAGACCCCAGAAACAUGACCUCCCACUGCAGGGUGUUGAAGGCCGAGCCCUCCCUCCGCUGAGCAUGUGAU,1.61
UCCCCGUCCCUUUUCUGUCAGCCCAUCACAGCCACCUGCUCUGCUCAGACAGCCAGGCACCAGAAGUGAGAGCAGAAGUCUGCAUCCUGCCGAGCCGCCGCAGACGGAGC,0.635
GCCUGAACCGGUGUGUAUUUGGGGAUCUGGAUGUGUAUGGCCACGGUGUGGCAGCUUUUGGAUUUUUUUCCUCCGGGGAGCAUUGACUGUGUGGACAUUGUUUGAGGAGC,0.657
AUAGCUACCUGCAAGACACUACUGUCCCUCUACUUUUGCCAGGAAAGCCACUCUACUAUGAAUGUUAUUGGGGCUACACUUGCCUUUCUUGCCCAAGGGCCUCCUGCAUA,0.7
ACUGCCAUCUUUCUUUUGUGACUUUCUUCCUUAAGCAACAGUAAACUUGCAGCAGAUCUGGUUUUUUUUUUUUUUCCUUGCCAAGACAUCGCCAGCCCUGUAGAAGGCUC,0.815
CUCUUCUCACUUUACCUGUUUUUAUUUCUGCUUGUAUCUAAGUGUGAAGGCAGGGCAGGUACACUGAGUCUGGAAGCUCUGGGUGAGGCUCGGAGCUUGAAGCUCUUUGA,0.353
UAUACACUGAGAAGGAAGAAAGGAGCCAGUGAUUCCAGGAGGAGGAGGGCCCGGCCAGGGACUCCCCAGUAUUUCCAGGCCAUAAUGGUGGACCCACAGCCCUGACUUCA,0.411

# Block 2 — method: RNA Bind-n-Seq; form: RNA; sample: in vitro; concentration: 200 nM; notes: whole 134-nt RNA, ends assumed; with: 150 mM KCl; reference: input library; reading: higher = stronger binding
# Target: Ras GTPase-activating protein-binding protein 1, full length (G3BP1, Homo sapiens, UniProt Q13283)
# UniProt Q13283, sequence (whole entry, looked up): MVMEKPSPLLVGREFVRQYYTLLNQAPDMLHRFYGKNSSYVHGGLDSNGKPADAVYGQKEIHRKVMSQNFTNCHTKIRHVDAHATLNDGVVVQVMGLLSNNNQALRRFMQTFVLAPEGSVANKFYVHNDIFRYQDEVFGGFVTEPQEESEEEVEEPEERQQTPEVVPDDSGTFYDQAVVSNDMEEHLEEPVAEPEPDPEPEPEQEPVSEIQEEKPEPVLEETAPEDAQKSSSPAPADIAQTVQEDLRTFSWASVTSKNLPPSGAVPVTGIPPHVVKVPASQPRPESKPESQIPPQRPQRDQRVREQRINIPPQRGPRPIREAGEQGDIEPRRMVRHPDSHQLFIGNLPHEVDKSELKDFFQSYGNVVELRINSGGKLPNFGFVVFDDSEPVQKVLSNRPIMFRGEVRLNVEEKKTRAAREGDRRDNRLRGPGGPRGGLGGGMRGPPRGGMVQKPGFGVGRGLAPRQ
# Constant ends, left off below: GGGAGUUCUACAGUCCGACGAUC … UGGAAUUCUCGGGUGUCAAGG
Strand,log2 enrichment
UCAAGUCCUGUGCUACACAUCGUAUGUACCGAAUCGGGUUUGGUUUGGGUUUGGGAAAGUAUUAUGUUACGCCGUUCGGAUCUGCACUUC,-0.76
UGGCCCUGGUGGCAUGCGGGGAGGAAGAGGUGGCCUCAUGGAUCGUGGUGGUCCCGGUGGAAUGUUCAGAGGUGGCCGUGGUGCAGACAG,0.308
UCCUGUGCUACACAUCGUAUGUACCGAAUCGGGGAAAAAGGGGUUUUUUUGGGGAGGGGAAAGUAUUAUGUUACGCCGUUCGGAUCUGCA,0.834
GUCCUGUGCUACACAUCGUAUGUACCGAAUCGGGUUUGGGAAAAAGGGUUUUUUUGGGAAAGUAUUAUGUUACGCCGUUCGGAUCUGCAC,-0.154
UGGCCCGGGUGGCAUGCGGGGAGGAAGAGGUGGCCUCAUGGAUCGUGGUGGUCCCGGUGGAAUGUUCAGAGGUGGCCGUGGUGGAGACAG,0.817
ACCAUGCAGGUGGGCAUCUUUGGGAAGUGGGGCAAGGGGGGGAUAGGGAGGGGGGUAACACUUUGGGAACAGCUGGUCCCAGGUCGUUUC,1.32
UCCUCAAGUCCUGUGCUACACAUCGUAUGUACCGAAUCGGGAGGGAGGAGGGAAAGUAUUAUGUUACGCCGUUCGGAUCUGCACUUCCAG,1.12
UCAAGUCCUGUGCUACACAUCGUAUGUACCGAAUCGGGUUGGGGUUGGGUUGGGAAAGUAUUAUGUUACGCCGUUCGGAUCUGCACUUCC,1.05
GUCCUGUGCUACACAUCGUAUGUACCGAAUCGGGCCCCCGGGCCCCCGGGCCCCCGGGAAAGUAUUAUGUUACGCCGUUCGGAUCUGCAC,-1.02

# Block 3 — method: RNA Bind-n-Seq; form: RNA; sample: in vitro; concentration: not given; reference: input RNA pool; reading: higher = stronger binding
# Target: RING finger protein unkempt homolog, zinc fingers 1-6, GST-SBP tag (UNK, Homo sapiens, UniProt Q9C0B0, residues 30-357)
# UniProt Q9C0B0, sequence (30-357, looked up): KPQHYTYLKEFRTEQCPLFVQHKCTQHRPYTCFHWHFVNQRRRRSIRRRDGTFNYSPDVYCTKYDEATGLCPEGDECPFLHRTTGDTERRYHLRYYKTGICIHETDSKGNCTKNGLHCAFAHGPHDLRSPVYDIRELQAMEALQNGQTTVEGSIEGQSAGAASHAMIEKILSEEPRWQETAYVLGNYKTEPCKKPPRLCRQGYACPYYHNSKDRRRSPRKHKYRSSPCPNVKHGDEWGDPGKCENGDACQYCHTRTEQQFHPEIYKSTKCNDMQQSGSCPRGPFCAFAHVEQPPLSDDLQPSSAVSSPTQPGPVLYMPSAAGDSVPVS
# Notes: RNA with constant flanks, human and mouse sites, ends assumed
# Constant ends, left off below: GGGAGUUCUACAGUCCGACGAUC … CAACAGAGGAUUGAGCAUCA
Strand,bound/input enrichment [ratio]
GCCUUGGGGACCCCUCCCCAGCUCUGGGCAGGGCCUGGGGAUCCCACAUUCCAUGCCCAGGCUUGGGGGAGGGGGACCCAGACUUGUUGUACAUAUUUUGCAUACUGUCUGAUUAAACAC,0.119
CUUCUUUGUCUUUGGAUCAUUUGCGUUCUCAGUGACACAUUUCUCUUCAGUAAUUGUUGCCAAAUUUAUAAGGAAAAAUGAUUCCCAAUGGAUAUUUGAUGUUUGAAGAUGAAAAUUUUA,0.209
AAUUCAUCUCUUUUUAUAUGUCCGAAAACGGCCGAGCUUUUCAGCAGUGGCUGGCUUGGCCGACUCUGCCGUCCCUGGCAGAGCGUUGUUACUGUUGCUCCUUAGCAGCUGCUGCCUGGU,0.855
UCUUUGUUUGUAACUUAUCUGUAAAAGGUUUCUCCCUACUGUCAAAAAAAUAUGCAUGUAUAGUAAUUAGGACUUCAUUCCUCCAUGUUUUCUUCCCUUAUCUUACUGUCAUUGUCCUAA,1.88
GUGCAGUAGAAUUCAGAGACUUCUCAUUCAAUCUUGUAUCCUAUGCAGCUACAAAUAUUUUUUAAAUGUUAGUAAUAAACAUUGGAAUUUUGUCUUAAAGAGUUCAAAACCUUGGAACCC,0.263
GAGGAAGAGAAUGUUGUUUUAAAGUUCUCUGAACAGGGGGGAACCCCACAGAAUGUGGCCACUAGCAGCUCCCUCACAGCACAUCUCAGAAGCCUCUCCAAAGGAGAUUCCCCUGUGACU,0.139
CGGGUCGGAGAUUAUGUCUACUUUGAGAAUUCCUCCAGCAACCCAUACCUAAUAAGAAGGAUAGAAGAACUCAACAAGACUGCAAGUGGCAACGUGGAAGCAAAAGUAGUAUGCUUUUAU,0.822
UUGAAAUCUGGAAUGUCUCCUGAGCAGAGCAGGUUCCAGUCUGACUCUUCUUCAUAUCCUACAGUGGACUCGAAUUCUCUCUUGGGGCAGAGUAGAUUGGAGACUGCUGAAUCAAAAGAG,0.22

# Block 4 — method: universal PBM; form: double-stranded DNA, one strand shown; sample: in vitro; concentration: 600 nM; reading: higher = stronger binding
# Target: Sal-like protein 4, full length isoform A (SALL4, Homo sapiens, UniProt Q9UJQ4, residues 1-1053)
# UniProt Q9UJQ4, sequence (whole entry, looked up): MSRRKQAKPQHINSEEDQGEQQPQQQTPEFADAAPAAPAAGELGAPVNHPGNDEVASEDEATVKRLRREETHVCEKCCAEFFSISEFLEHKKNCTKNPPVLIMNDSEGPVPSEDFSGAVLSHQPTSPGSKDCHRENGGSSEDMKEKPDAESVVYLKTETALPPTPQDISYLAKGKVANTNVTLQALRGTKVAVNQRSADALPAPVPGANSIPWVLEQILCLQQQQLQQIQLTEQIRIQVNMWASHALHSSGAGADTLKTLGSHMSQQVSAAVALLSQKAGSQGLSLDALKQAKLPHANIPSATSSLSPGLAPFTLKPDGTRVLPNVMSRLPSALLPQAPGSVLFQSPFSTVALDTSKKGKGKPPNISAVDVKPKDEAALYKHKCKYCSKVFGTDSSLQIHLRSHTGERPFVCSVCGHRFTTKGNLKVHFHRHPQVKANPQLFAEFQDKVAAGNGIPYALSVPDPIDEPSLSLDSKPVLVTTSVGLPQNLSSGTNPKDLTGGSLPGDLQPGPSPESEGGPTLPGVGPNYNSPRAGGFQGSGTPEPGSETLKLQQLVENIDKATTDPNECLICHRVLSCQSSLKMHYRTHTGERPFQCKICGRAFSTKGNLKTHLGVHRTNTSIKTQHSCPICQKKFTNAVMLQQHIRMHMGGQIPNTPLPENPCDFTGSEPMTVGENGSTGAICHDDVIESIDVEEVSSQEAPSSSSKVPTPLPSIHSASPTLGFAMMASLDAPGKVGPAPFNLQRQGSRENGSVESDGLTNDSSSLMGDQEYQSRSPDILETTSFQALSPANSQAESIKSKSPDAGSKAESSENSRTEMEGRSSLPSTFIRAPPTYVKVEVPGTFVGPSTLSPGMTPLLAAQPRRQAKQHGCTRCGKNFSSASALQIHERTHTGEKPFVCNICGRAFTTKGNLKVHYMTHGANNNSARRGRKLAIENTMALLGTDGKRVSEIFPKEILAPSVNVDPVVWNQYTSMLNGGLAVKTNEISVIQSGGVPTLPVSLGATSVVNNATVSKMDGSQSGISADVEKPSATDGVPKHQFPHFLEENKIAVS
# Notes: 8-mer, flanks averaged, mean of replicates
Strand,E-score
AACCCAAA,-0.0002
GGCGGAAA,-0.016
GGAGGACA,0.0253
CCGACGCA,-0.213
AACACAAG,-0.0279
CGTTAACA,0.082
CGCAGAGA,-0.236
GATCAAGA,0.0738
GGCCGCGA,-0.35
AGATCCCT,-0.166
CCACTCGA,-0.0945
CTTTTTCC,0.096
CCGACGGA,-0.237
GTATCCGA,-0.112
GAGGCTCA,-0.243
CGCGCCAG,-0.225
GGAGGAGA,-0.159
CTTATGCC,0.101
ACCCCTAA,-0.222
AGTGGAGC,-0.125
AGATTCTA,0.241
AAGACGGA,-0.0469
AGGTCATC,-0.136
CATTAGCG,0.0297

# A few entries again (block 1):
Strand,RBNS enrichment (R)
AUGAGUAGGUACCAGAUACCAACUCAGUAAUUAAUUUUGUAGCAUUGUCCCCAAGCUCUGGAUUUUUUUCUCUCCAGGACCCAAGUUUUAGGCAGUGAGUAAUGCUUAUA,0.301
UACACCAGUGACUGUCGGGCAGGGCAAGCGCCCUGGUCACAGACCCCAGAAACAUGACCUCCCACUGCAGGGUGUUGAAGGCCGAGCCCUCCCUCCGCUGAGCAUGUGAU,1.61
UCCCCGUCCCUUUUCUGUCAGCCCAUCACAGCCACCUGCUCUGCUCAGACAGCCAGGCACCAGAAGUGAGAGCAGAAGUCUGCAUCCUGCCGAGCCGCCGCAGACGGAGC,0.635
GCCUGAACCGGUGUGUAUUUGGGGAUCUGGAUGUGUAUGGCCACGGUGUGGCAGCUUUUGGAUUUUUUUCCUCCGGGGAGCAUUGACUGUGUGGACAUUGUUUGAGGAGC,0.657
